Measured values of several laboratories.
Protocols differ between the studies behind these lines. ± marks the error that the study gave.

`CSCC[C@H](NC(=O)[C@H](CC(C)C)NC(=O)[C@H](Cc1c[nH]cn1)NC(=O)CNC(=O)[C@@H](NC(=O)[C@H](C)NC(=O)[C@H](Cc1c[nH]c2ccccc12)NC(=O)[C@H](CCC(N)=O)NC(=O)CCCCNC(=O)CSCCSCCP(CO)CO)C(C)C)C(N)=O` [technetium-99m labelled] — result for “uptake in blood”: 0 %ID (CF-1 mouse; intravenous, 24 h).
With `N=C(N)NCCC[C@@H]1NC(=O)[C@H](CCCCNC(=O)CCOCCOCCOCCOCCNC(=O)CC[C@H](NC(=O)CCOCCOCCOCCOCCNC(=O)c2ccc(NN)nc2)C(=O)NCCOCCOCCOCCOCCC(=O)NCCCC[C@@H]2NC(=O)[C@@H](Cc3ccccc3)NC(=O)[C@H](CC(=O)O)NC(=O)CNC(=O)[C@H](CCCNC(=N)N)NC2=O)NC(=O)[C@@H](Cc2ccccc2)NC(=O)[C@H](CC(=O)O)NC(=O)CNC1=O` [technetium-99m labelled] the logP was -4.35 ± 0.1 (shake-flask octanol/buffer; pH 7.4).
`CSCC[C@H](NC(=O)[C@H](CC(C)C)NC(=O)[C@H](Cc1c[nH]cn1)NC(=O)CNC(=O)[C@@H](NC(=O)[C@H](C)NC(=O)[C@H](Cc1c[nH]c2ccccc12)NC(=O)[C@H](CCC(N)=O)NC(=O)CCCCCNC(=O)CN1CCN(CC(=O)O)CCN(CC(=O)O)CC1)C(C)C)C(N)=O` [gallium-68 labelled]: “maximum tumour uptake” 4.77 ± 0.96 %ID/g (microPET imaging; mouse PC-3 xenograft, PC-3 tumour; intravenous, 3.7 MBq, 60 min).
Under “tumour to tissue ratio”, `N=C(N)NCCC[C@@H]1NC(=O)[C@H](CCCCNC(=O)CC[C@H](NC(=O)CCOCCOCCOCCOCCNC(=O)CN2CCN(CC(=O)O)CCN(CC(=O)O)CCN(CC(=O)O)CC2)C(=O)NCCCC[C@@H]2NC(=O)[C@@H](Cc3ccccc3)NC(=O)[C@H](CC(=O)O)NC(=O)CNC(=O)[C@H](CCCNC(=N)N)NC2=O)NC(=O)[C@@H](Cc2ccccc2)NC(=O)[C@H](CC(=O)O)NC(=O)CNC1=O` [indium-111 labelled] is recorded as 5.22 ± 0.95 (athymic nude mice, female, U-87 MG glioma xenograft, tumour and muscle; intravenous, 0.5 h; baseline: tumour over muscle).
`CCCC[C@H](NC(=O)CNC(=O)CNC(=O)c1ccc(NN)nc1)C(=O)N[C@H]1CC(=O)NCCCC[C@@H](C(N)=O)NC(=O)[C@H](Cc2c[nH]c3ccccc23)NC(=O)[C@H](CCCNC(=N)N)NC(=O)[C@@H](Cc2ccccc2)NC(=O)[C@H](Cc2c[nH]cn2)NC1=O` [technetium-99m labelled]: “tissue uptake ratio” 5.03 (C57 mouse, B16/F1 melanoma-bearing; intravenous, 0.5 h; baseline: tumour over lung).
With `CSCC[C@H](NC(=O)[C@H](CC(C)C)NC(=O)[C@H](Cc1c[nH]cn1)NC(=O)CNC(=O)[C@@H](NC(=O)[C@H](C)NC(=O)[C@H](Cc1c[nH]c2ccccc12)NC(=O)[C@H](CCC(N)=O)NC(=O)CCCCCNC(=O)CNC(=O)CNC(=O)CNC(=O)CSC(C)=O)C(C)C)C(N)=O` [technetium-99m labelled] the tissue uptake was 0.04 ± 0.02 %ID/g (Swiss mouse, heart; intravenous, 18.5 MBq, 240 min).
For `N=C(N)NCCC[C@@H]1NC(=O)[C@H](CCCCNC(=O)CNC(=O)CNC(=O)CNC(=O)CC[C@H](NC(=O)CCOCCOCCOCCOCCNC(=O)CC[C@H](NC(=O)CN2CCN(CC(=O)O)CCN(CC(=O)O)CCN(CC(=O)O)CC2)C(=O)NCCOCCOCCOCCOCCC(=O)N[C@@H](CCC(=O)NCC(=O)NCC(=O)NCC(=O)NCCCC[C@@H]2NC(=O)[C@@H](Cc3ccccc3)NC(=O)[C@H](CC(=O)O)NC(=O)CNC(=O)[C@H](CCCNC(=N)N)NC2=O)C(=O)NCC(=O)NCC(=O)NCC(=O)NCCCC[C@@H]2NC(=O)[C@@H](Cc3ccccc3)NC(=O)[C@H](CC(=O)O)NC(=O)CNC(=O)[C@H](CCCNC(=N)N)NC2=O)C(=O)NCC(=O)NCC(=O)NCC(=O)NCCCC[C@@H]2NC(=O)[C@@H](Cc3ccccc3)NC(=O)[C@H](CC(=O)O)NC(=O)CNC(=O)[C@H](CCCNC(=N)N)NC2=O)NC(=O)[C@@H](Cc2ccccc2)NC(=O)[C@H](CC(=O)O)NC(=O)CNC1=O` [indium-111 labelled], “tumour to tissue ratio” read 4.38 ± 1.28 (athymic nude mice, female, U-87 MG glioma xenograft, tumour and lungs; intravenous, 1 h; baseline: tumour over lungs).
Under “standardised uptake value”, `CC(C)C[C@H](NC(=O)[C@@H]1CCCN1C(=O)[C@H](CCCCN)NC(=O)[C@@H](N)CO)C(=O)N1CCC[C@H]1C(=O)N[C@@H](CCC(=O)O)C(=O)N[C@H](C(=O)N[C@H](C(=O)N[C@@H](CC(=O)O)C(=O)N[C@@H](CCC(=O)O)C(=O)N[C@@H](Cc1ccc(O)cc1)C(=O)N[C@@H](Cc1cn(CCOCCOCCOCCNC(=O)CCc2ccc(O)c(CN(CCN(CC(=O)O)Cc3cc(CCC(=O)NCCCC[C@H](NC(=O)N[C@@H](CCC(=O)O)C(=O)O)C(=O)O)ccc3O)CC(=O)O)c2)nn1)C(=O)O)[C@@H](C)O)C(C)C` [gallium-68 labelled] is recorded as 1.22 g/g (NMRI nu/nu mouse, LNCaP tumour, tumour; 10 MBq, high molar activity).
The tumour uptake of `CC(C)C[C@H](NC(=O)C[C@H](O)[C@H](CC(C)C)NC(=O)[C@H](Cc1c[nH]cn1)NC(=O)CNC(=O)[C@@H](NC(=O)[C@H](C)NC(=O)[C@H](Cc1c[nH]c2ccccc12)NC(=O)[C@H](CCC(N)=O)NC(=O)[C@@H](Cc1ccccc1)NC(=O)c1ccc(NC(=O)CNC(=O)CCC(C(=O)O)N2CCN(CC(=O)O)CCN(CC(=O)O)CC2)cc1)C(C)C)C(N)=O` (stereo partly shown) [fluorine-18 labelled] is reported as 1.6 ± 0.34 %ID/g (PET imaging; mouse, PC-3 xenograft; intravenous, 1 h, blocking, with: AMBA 10 mg/kg).
For `N=C(N)NCCC[C@@H]1NC(=O)[C@H](CCCCNC(=O)CC[C@H](NC(=O)CCOCCOCCOCCOCCNC(=O)CC[C@H](NC(=O)CN2CCN(CC(=O)O)CCN(CC(=O)O)CCN(CC(=O)O)CC2)C(=O)NCCOCCOCCOCCOCCC(=O)N[C@@H](CCC(=O)NCCCC[C@@H]2NC(=O)[C@@H](Cc3ccccc3)NC(=O)[C@H](CC(=O)O)NC(=O)CNC(=O)[C@H](CCCNC(=N)N)NC2=O)C(=O)NCCCC[C@@H]2NC(=O)[C@@H](Cc3ccccc3)NC(=O)[C@H](CC(=O)O)NC(=O)CNC(=O)[C@H](CCCNC(=N)N)NC2=O)C(=O)NCCCC[C@@H]2NC(=O)[C@@H](Cc3ccccc3)NC(=O)[C@H](CC(=O)O)NC(=O)CNC(=O)[C@H](CCCNC(=N)N)NC2=O)NC(=O)[C@@H](Cc2ccccc2)NC(=O)[C@H](CC(=O)O)NC(=O)CNC1=O` [indium-111 labelled], “tumour to tissue ratio” read 231 ± 137 (athymic nude mice, female, U-87 MG glioma xenograft, tumour and blood; intravenous, 24 h; baseline: tumour over blood).
For `Cc1ncsc1-c1ccc(CNC(=O)[C@@H]2C[C@@H](OC(=O)OCCSSCCn3cc(CCCC(=O)N[C@@H](Cc4ccc(O)cc4)C(=O)N[C@@H](CCCNC(=N)N)C(=O)N[C@@H](CCCNC(=N)N)C(=O)N[C@@H](CCCNC(=N)N)C(=O)N[C@@H](CCCNC(=N)N)C(=O)N[C@@H](CCCNC(=N)N)C(=O)N[C@@H](CCCNC(=N)N)C(=O)N[C@@H](CCCNC(=N)N)C(=O)N[C@@H](CCCNC(=N)N)C(=O)N[C@@H](CCCNC(=N)N)C(N)=O)nn3)CN2C(=O)[C@@H](NC(=O)COCCOCCOCCNC(=O)C[C@@H]2N=C(c3ccc(Cl)cc3)c3c(sc(C)c3C)-n3c(C)nnc32)C(C)(C)C)cc1`, the released payload was 100% (UHPLC; PBS; 100 nM, 6 h, 37 °C, with: 5 mM glutathione; baseline: total peak area).
Under “tumour to tissue ratio”, `N=C(N)NCCC[C@@H]1NC(=O)[C@H](CCCCNC(=O)CCOCCOCCOCCOCCNC(=O)CN2CCN(CC(=O)O)CCN(CC(=O)O)CCN(CC(=O)O)CC2)NC(=O)[C@@H](Cc2ccccc2)NC(=O)[C@H](CC(=O)O)NC(=O)CNC1=O` [indium-111 labelled] is recorded as 2.54 ± 0.45 (athymic nude mice, female, U-87 MG glioma xenograft, tumour and lungs; intravenous, 1 h; baseline: tumour over lungs).
The biodistribution of `CCCC[C@H](NC(=O)CCCCCCCNC(=O)c1ccc(NN)nc1)C(=O)N[C@H]1CC(=O)NCCCC[C@@H](C(N)=O)NC(=O)[C@H](Cc2c[nH]c3ccccc23)NC(=O)[C@H](CCCNC(=N)N)NC(=O)[C@@H](Cc2ccccc2)NC(=O)[C@H](Cc2c[nH]cn2)NC1=O` [technetium-99m labelled] is reported as 1.85 ± 0.42 %ID (C57 mice, B16/F1 melanoma, intestines; concentration not given, 2 h, with: 6.07 nmol NDP-MSH).
